Measured values pooled from the literature.
Each line is one published result; not all experiments were run side by side. Several values in a cell are separate wells, animals, samples, runs or records. Numbers after ± are the reported error.

| Compound | cell line | assay | system | conditions | IC50 |
| --- | --- | --- | --- | --- | --- |
| CC#Cc1cncc(-c2ccc3c(c2)[C@@]2(N=C(C)C(N)=N2)[C@]2(CC[C@H](OC)CC2)C3)c1 | HEK293 overexpressing APP Swedish mutant | Aβ42 production |  |  | 0.00037 µM |
| C=CC(=O)NC1CCN(c2ncc3ncnc(Nc4ccc(Oc5ccc6c(c5)ncn6C)c(C)c4)c3n2)CC1 | Ba/F3 expressing HER2 L755S | cell growth, inhibitor, CellTiter-Glo |  |  | 0.0309 µM |
| Cc1nc(Nc2ncc(C(=O)Nc3c(C)cccc3Cl)s2)cc(N2CC[C@H](O)C2)n1 | Jurkat E6-1 | cell proliferation, CellTiter-Glo |  | 72 h | > 10 µM |
| C[C@H]1Oc2cc(cnc2N)-c2c(nn(C)c2C#N)CN(C)C(=O)c2ccc(F)cc21 | Ba/F3 EML4-ALK variant 1 E1210K | cell viability |  |  | 0.00102 µM |
| C[C@]12CC[C@@H]3c4ccc(O)cc4C[C@@H](CCCCCCCCC[S+]([O-])CCCC(F)(F)C(F)(F)F)[C@H]3[C@@H]1CC[C@@H]2O (some centres unmarked) | MCF7/luciferase, wild type | cell proliferation |  |  | 0.0008 µM |
| Cc1cc(Nc2ncc(Cl)c(Nc3ccccc3S(=O)(=O)C(C)C)n2)c(OC(C)C)cc1C1CCNCC1 | Ba/F3 EML4-ALK variant 1 E1210K | cell viability |  |  | 0.108 µM |
| C[C@H](Nc1ccc2c(c1)OCCn1cc(N3C(=O)OC[C@H]3C(F)F)nc1-2)C(N)=O | T47D | S6 phosphorylation, inhibitor, in-cell western, refers to: phospho-S6 Ser235/236 |  | 2 h | 0.0171 µM |
| CC(C)(C)c1cnc(CSc2cnc(NC(=O)C3CCN(C(=O)CCCCCCCCCCN4Cc5cc6c(cc5C4)C(=O)N(C4CCC(=O)NC4=O)C6=O)CC3)s2)o1 (centres unmarked) | TC-71 | cell growth, MTT |  | 72 h | 0.0718 ± 0.0022 µM |
| C=CC(=O)N1CCC(CN(C)CC(=O)N2CCN(c3nc(-c4cnc(N)nc4C(F)F)nc(N4CCOCC4)n3)CC2)CC1 | SK-OV-3 | Akt phosphorylation, inhibitor, in-cell western, refers to: Akt pSer473 |  |  | 0.038 µM |
| C=CC(=O)N1CCC[C@@H](c2ccc(C(N)=O)c3[nH]ccc23)C1 | TMD8 RAC2 knockout | calcium flux, FLIPR |  | 4 h preincubation | 0.015 µM |
| CC1=CC(=O)C(C(C)C)=CC1=O | HK-2 | cell viability, CCK-8 |  | 24 h | 79 ± 5.62 µM |
| CC(C)(C)c1cnc(CSc2cnc(NC(=O)C3CCN(C(=O)CCOCCN4Cc5cc6c(cc5C4)C(=O)N(C4CCC(=O)NC4=O)C6=O)CC3)s2)o1 (centres unmarked) | TC-71 | cell growth, MTT |  | 72 h | 0.0089 ± 0.0003 µM |
| COc1cc(N2CCC(N3CCN(C)CC3)CC2)ccc1Nc1ncc(Cl)c(Nc2ccccc2P(C)(C)=O)n1 | KARPAS-299 (NPM1-ALK) | cell viability |  |  | 0.00825 µM |
| C=CC(=O)N1CCC[C@@H](n2nc(-c3ccc(Oc4ccccc4)cc3)c3c(N)ncnc32)C1 | Ramos | calcium flux, FLIPR |  | 4 h preincubation | 0.00039 µM |
| COc1cc(Nc2nccc(-c3cnn4nc(OC)ccc34)n2)cc(C(F)(F)F)c1 | MCAS | cell growth, CellTiter-Glo | ovary |  | 0.44 µM |
| CC(=O)Nc1ccc(O)cc1 | THLE-2 | cytotoxicity |  | concentration not given, null adenovirus control, together with: BSO | > 1500 µM |
| C[C@@H]1CN(C(=O)c2ccc(NC(=O)c3cc(O[C@H](C)c4c(Cl)ccc(F)c4Cl)c(N)nn3)cc2)C[C@H](C)N1 | Ba/F3 EML4-ALK variant 1 E1210K | cell viability |  |  | 0.0642 µM |
| Cc1nc(NC(=O)N2CCC[C@H]2C(N)=O)sc1-c1ccnc(C(C)(C)C(F)(F)F)c1 | SK-OV-3 | FOXO1 translocation, kinase translocation reporter |  | 2 h | 1.28 µM |
| CC1(C)COc2ccc(F)cc2CN2c3nc4c(cnn4cc3OC[C@H]2C(F)F)C(=O)N1 | NB1 (ALK amplification, exon 2-3 deletion) | cell viability |  |  | 0.00574 µM |
| CC(C)(C)c1cnc(CSc2cnc(NC(=O)C3CCN(C(=O)CCCCN4Cc5cc6c(cc5C4)C(=O)N(C4CCC(=O)NC4=O)C6=O)CC3)s2)o1 (centres unmarked) | TC-71 | cell growth, MTT |  | 72 h | 0.013 ± 0.0023 µM |
| CCNCCc1ccc(CN(CC)c2cc(OC)ccc2[C@@H]2CCc3cc(O)ccc3C2)cc1 | MCF7/luciferase, wild type | cell proliferation |  |  | 0.0053 µM |

| Compound | cell line | assay | system | conditions | IC50 |
| --- | --- | --- | --- | --- | --- |
| C[C@H]1CN(C2COC2)CCN1c1ccc(Nc2cc(-c3ccnc(N4CCn5c(cc6c5CC(C)(C)C6)C4=O)c3CO)cn(C)c2=O)nc1 | TMD8 RAC2 knockout | calcium flux, FLIPR |  | 1 h preincubation | 0.0051 µM |
| CCOC(=O)c1nn(-c2ccccc2)c(C#N)c1NC(=O)c1nn(CC)cc1F | human PBMC monocytes | phagocytosis of anti-D RBCs |  |  | > 100 µM |
| CCCCN1C[C@H](O)[C@@H](O)[C@@H](O)[C@H]1CO | sample C patient fibroblasts | Gb3 level lowering, LC-MS/MS, refers to: Gb3 d18:1/20:0 |  | 216 h | 6.7 µM |
| O=C(Nc1nccs1)c1cnn(-c2ccccc2)c1-n1cccc1 | human PBMC monocytes | phagocytosis of anti-D RBCs |  |  | 18.4 ± 8.5 µM |
| CCC(=O)N1CCC(COCC(=O)N2CCN(c3nc(-c4cnc(N)nc4C(F)F)nc(N4CCOC[C@@H]4C)n3)CC2)CC1 | T47D | S6 phosphorylation, inhibitor, in-cell western, refers to: phospho-S6 Ser235/236 |  | 2 h | 0.0621 µM |
| COc1cc2c3c(n(CCCn4ccnc4)c(=O)c2cc1OC)-c1nc2c(cc1C3=O)OCO2 | TC-106 Ewing sarcoma cells | cytotoxicity, MTS |  | 72 h | 0.229 ± 0.016 µM |
| COc1c(Cl)cccc1Nc1c(-c2ccncc2OC[C@@H]2COCCO2)[nH]c2c1C(=O)NCC2 | Ba/F3 expressing HER2 L755S | cell growth, inhibitor, CellTiter-Glo |  |  | 0.0019 µM |
| C=CC(=O)N1CCC([C@@H]2CCNc3c(C(N)=O)c(-c4ccc(Oc5ccccc5)cc4)nn32)CC1 | TMD8 RAC2 knockout | calcium flux, FLIPR |  | 2 h preincubation | 0.0016 µM |
| C=CC(=O)N1CCC(C(=O)NCC(=O)N2CCN(c3nc(-c4cnc(N)nc4C(F)F)nc(N4CCOCC4)n3)CC2)CC1 | SK-OV-3 | Akt phosphorylation, inhibitor, in-cell western, refers to: Akt pSer473 |  |  | 0.0813 µM |
| CCOC(=O)c1nn(-c2ccccc2)c(C#N)c1NC(=O)c1nn(CC)cc1C | human PBMC monocytes | phagocytosis of anti-D RBCs |  |  | 37.3 ± 6.2 µM |
| CCN1CCN(Cc2ccc(NC(=O)c3ccc(C)c(-c4ccc5nc(NC(=O)C6CC6)cn5n4)c3)cc2C(F)(F)F)CC1 | SET-2 | cell viability, CellTiter-Glo |  | 72 h | 1.01 µM |
| CCOC(=O)c1nn(-c2ccccc2)c(C#N)c1NC(=O)c1nn(CC)cc1Br | human PBMC monocytes | phagocytosis of anti-D RBCs |  |  | 17.7 ± 3.4 µM |
| C[C@H](Nc1ccc2c(c1)OCCn1cc(N3C(=O)OC[C@H]3C(F)F)nc1-2)C(N)=O | NCI-H358 (PIK3CA WT, KRAS G12C) | basal AKT phosphorylation, HTRF, refers to: phospho-AKT |  | 4 h | 0.0157 ± 0.0029 µM |
| COc1cc2c3c(n(CCCNCCO)c(=O)c2cc1OC)-c1nc2c(cc1C3=O)OCO2 | TC-106 Ewing sarcoma cells | cytotoxicity, MTS |  | 72 h | 0.202 ± 0.002 µM |
| CC(C)(C)Cn1c(N)nc2ccc(-c3[nH]c(C(C)(C)C)nc3-c3ccc(F)cc3)nc21 | cell lines, cancer, EGFR-mutated | cell viability |  | median across lines | 3.5 µM |
| C=CC(=O)N1CCC(COCC(=O)N2CCN(c3nc(-c4cnc(N)nc4C(F)F)nc(N4CCOC[C@@H]4C)n3)CC2)CC1 | T47D | FOXO1 translocation, kinase translocation reporter |  | 2 h | 0.0149 µM |
| C=CC[C@@H]1/C=C(\C)C[C@H](C)C[C@H](OC)[C@H]2O[C@@](O)(C(=O)C(=O)N3CCCC[C@H]3C(=O)O[C@H](/C(C)=C/[C@@H]3CC[C@@H](O)[C@H](OC)C3)[C@H](C)[C@@H](O)CC1=O)[C@H](C)C[C@@H]2OC | Jurkat wild type | NFAT luciferase reporter |  |  | 1e-05 µM |
| O=C(C[C@@H](C(F)F)n1ccc(F)n1)N1CCC(O)(Cn2cnc3c(cnn3-c3ccc(F)cc3)c2=O)CC1 | CHP-212 parental | cell viability, SRB |  |  | 0.112 µM and 0.0842 µM and 0.0863 µM |
| CC#CC(=O)N1CCC[C@H]1c1nc(-c2ccc(C(=O)Nc3ccccn3)cc2)c2c(N)nccn12 | TMD8 RAC2 knockout | calcium flux, FLIPR |  | 1 h preincubation | 0.082 µM |
| CC(C)(C)c1cnc(CSc2cnc(NC(=O)C3CCN(C(=O)CCCCCCN4Cc5cc6c(cc5C4)C(=O)N(C4CCC(=O)NC4=O)C6=O)CC3)s2)o1 (centres unmarked) | TC-71 | cell growth, MTT |  | 72 h | 0.0096 ± 0.0002 µM |

For quick reference, copied from above:
| Compound | cell line | assay | system | conditions | IC50 |
| --- | --- | --- | --- | --- | --- |
| CCOC(=O)c1nn(-c2ccccc2)c(C#N)c1NC(=O)c1nn(CC)cc1C | human PBMC monocytes | phagocytosis of anti-D RBCs |  |  | 37.3 ± 6.2 µM |
| CCOC(=O)c1nn(-c2ccccc2)c(C#N)c1NC(=O)c1nn(CC)cc1Br | human PBMC monocytes | phagocytosis of anti-D RBCs |  |  | 17.7 ± 3.4 µM |
| C[C@H](Nc1ccc2c(c1)OCCn1cc(N3C(=O)OC[C@H]3C(F)F)nc1-2)C(N)=O | T47D | S6 phosphorylation, inhibitor, in-cell western, refers to: phospho-S6 Ser235/236 |  | 2 h | 0.0171 µM |
